# Results pooled from the literature.
# Numbered parts are unrelated; each lists some results of a single study. Substitutions count along the parent as printed.

# Series 1 — technique: DHFR PCA, deep sequencing; medium: yeast; added: (+)-ABA 0.11 µM; reference: wild-type fitted maximum; direction: higher = stronger binding
# Target: ABI1, truncated, D143A, DHFR fusion (Arabidopsis thaliana)
# Notes: methotrexate growth selection, single substitutions
# Parent: PYL1, truncated, DHFR fusion (Arabidopsis thaliana); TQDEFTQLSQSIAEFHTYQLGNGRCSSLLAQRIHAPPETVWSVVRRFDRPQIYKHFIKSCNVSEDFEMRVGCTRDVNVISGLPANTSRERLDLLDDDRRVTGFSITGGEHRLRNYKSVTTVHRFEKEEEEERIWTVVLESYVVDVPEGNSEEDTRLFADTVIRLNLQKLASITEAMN
Substitution,relative binding score [%]
G108I,7.74
G148E,6.61
G107N,8.46
T39C,19.2
V161L,62.8
Y53Q,-7.37
N165Q,2.89
K168R,29.7
G21C,20.5
P37E,-1.91
A13F,4.6
D75K,22.9
P37V,16.6
V43Y,-2.58
H110Q,31.4
E130C,25.5
N165K,9.53
H16M,-4.87
W134R,9.72

# Series 2 — technique: RNA Bind-n-Seq; molecule type: RNA; medium: in vitro; concentration: 365 nM; reference: no-protein control; direction: higher = stronger binding
# Target: RNA binding protein fox-1 homolog 2, RRM domain, GST-SBP tag (RBFOX2, Homo sapiens, UniProt O43251-10, residues 100-194)
# Notes: natural RNA segment, single round, ends assumed
# Shared flanks, not repeated: GGGAGUUCUACAGUCCGACGAUC … UGGAAUUCUCGGGUGCCAA
# Construct (chain): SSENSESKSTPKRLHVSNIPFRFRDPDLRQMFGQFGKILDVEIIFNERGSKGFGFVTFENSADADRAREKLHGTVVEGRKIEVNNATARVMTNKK
Sequence,RBNS enrichment (R)
UUGUCUUGGGAAACGUAGUCUAGAAAAAGCCACGUAGAGAAUAACGUGAUGUUCUAGAGUUGUAUGUGUCUGGGUUCUUCCUAUGAGAUCUAAGGGGACGUUAUAAGUGA,4.63
AACCUGAACACUCAGCCCCAAGCUUCAGAAGAGUGAGAACCUCAUUUGAAAACUCAGCAGAACAUGAACAGAUGAAAUGCAAUCCUUCUGUCAUGGAAAUAUUCACAAGA,0.44
UGGAUUGCAAGCUUUAGAACGAAUCAAGCAUUUUCCCUAGCCAGGCAAGGCAUUCGUUUCCUUACUUUGGAAUAGUAUUUAUGUUGAAUUGUAAACCCACAGUUGUAAGC,0.516
GGGGCCAGGAUUUUCCCUGGUCAGAUGCCAAGUAACAUGUGGUUUUCUGCCAUACUUUUCUCCAUUGGCCCAGGUAGGCUAAUUGGUAGUUGUUCAUUUCAGCCUCUGGA,0.239
GUAUAUAAUUUGGUUGGUAUUUCACUAUUUAAUUUUUAAGAAGCCUAUUUUACUAGUGUUUUAUAUGAACAAAGUACUGCAGAAGUUAAACCUGUGUUGUAUUUUUUCUG,0.63
UGGACAGGCACACGGCAUGGCCCUCGGCUAGAGCAGGGUCUGUGAUGGCCUCACCUGGCAGCCCUCUGGCCUAGUUCCCACCACACAUGAGGUGGUGGAAUGGCCUGAAG,0.758
AUCUGCACCGCCGGCCAGCUGGGAUCUGACUGCACGUGGCUUCUGAUGAAUCUUGCGUUUUUUACAAAUUGGAGCAGGGACAGAUCAUAGAUUUCUGAUUUUAUGUAAAA,1.21
CUCUGCCAAGUGUCCCUGUGCUCCAGCACCUUCCUUGAAGGACUGACGCCCACCCCACGCUCUUUGCGAGGUUGUCCAGGCUGUGUUUGUCGCAUGCUCUUCUUCUGUAU,9.39

# Series 3 — technique: protein binding microarray; molecule type: double-stranded DNA, one strand shown; medium: in vitro; concentration: not given; reference: not given; direction: higher = stronger binding
# Target: Histone acetyltransferase KAT6A, winged helix 1, GST fusion (KAT6A, Homo sapiens, UniProt Q92794, residues 1-85)
# Notes: 8-mer, flanks averaged, mean of 2 arrays, mostly near background
# Target sequence (chain): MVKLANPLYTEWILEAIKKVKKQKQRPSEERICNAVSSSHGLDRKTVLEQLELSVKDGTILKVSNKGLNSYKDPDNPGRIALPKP
Sequence,E-score
CACAGACC,0.0578
AGTTCAGA,-0.155
CACTCACG,0.168
GACGCCAA,0.0657
CAAAACAG,-0.111
CAGACCGA,0.044
ATAAGCTA,-0.0839
ACCGAGTA,0.111
ACACCGAA,-0.0576
CCATGGAA,-0.275
CAGCCCGG,0.339
CTTCTCTA,-0.112
ACTTCGGC,0.138
CTAGTCAA,-0.264
AGGCCATG,-0.169
ACCTCGAT,-0.0942
GTAGATAA,0.0601

# Series 4 — target: CCNB1, cyclin fold, Cln2 fusion (human); technique: yeast growth competition, sequencing; medium: yeast; notes: weak parent motif; reference: not given; direction: higher = stronger binding
# Parent: ORC1 docking peptide (human); PRARKRLELGNLG
Substitution,normalised enrichment score
G10P,0.414
R4F,0.249
N11L,0.416
L12M,0.995
E8A,0.427
N11V,0.794
L7W,1.01
L9D,0.462
L12S,0.735
R4Y,0.0494
P1K,1.01
K5A L7A,0.432
L12I,0.138
R2H,0.318
G10C,0.557
L9P,-0.00362
G13M,0.267
L12W,1.11
G13N,1.09
R6V,0.035

# Excerpt of the above (series 1):
Substitution,relative binding score [%]
G108I,7.74
T39C,19.2
V161L,62.8
H16M,-4.87
H110Q,31.4
W134R,9.72
N165K,9.53
G148E,6.61
G21C,20.5
